Assay results gathered from unrelated publications.
Protocols differ between the studies behind these lines. Numbers after ± are the reported error.

`CC=CC(CC(=O)O)c1ccc(OCc2ccc(-c3cc(OC)ccc3F)cc2)cc1` (centres unmarked) has a GLP-1 release of 1.4 ± 0.2 (measured: total GLP-1; colonic crypt cultures, wild type, mouse, ex vivo; 1 µM, 2 h, unit not given; relative to: vehicle).
Under serine concentration, `Cc1cc(C)nc(NC(=S)N2CCN(Cc3ccc(C(F)(F)F)cc3)CC2)c1` is recorded as “no effect” (NOD.SCID mice MDA-MB-468 orthotopic xenograft, tumour; dose not given).
`CNc1oc(-c2cccc3ccccc23)nc1C#N` — result for “oxidative stress markers”: “no effect” (measured: 4-HNE, Nrf2 nuclear, GPX1; CD1 mice; ip, 24 mg/kg daily, 2 weeks).
With `CC(C)C1=C(OC(=O)CCc2ccccc2)C(=O)C2=C(C=C[C@H]3C(C)(C)CCC[C@]23C)C1=O` the HORAC was 0.63 Trolox equivalents (hydroxyl radical absorbance capacity, fluorometric).
`CN(C)c1cc2ccccc2c(N)n1` — result for liver hydroxyproline: “decreased” (ICR mouse, CCl4 liver fibrosis; intraperitoneal, 1 and 3 mg/kg daily).
Under “yolk extension area decrease”, `COC(=O)[C@H](CC(C)C)NC(=O)[C@@H]1C[C@@H]2CN1C(=O)[C@H]([C@@H](C)OP(=O)(O)O)NC(=O)[C@H](CO)NC(=O)[C@@H](NC(=O)c1cccc(C(F)(F)F)c1)CCC(=O)NCCO2` is recorded as 19% (zebrafish embryo; microinjection, 12.2 ng, 24 hpf; relative to: control).
`CC(=O)Nc1ccc(OC(=O)CCC(=O)[O][Pt-2]23([O]C(=O)CCC(=O)Oc4ccc(NC(C)=O)cc4)([NH2+][C@@H]4CCCC[C@H]4[NH2+]2)[O]C(=O)C(=O)[O]3)cc1`: “mature dendritic cells” 36.7% (BALB/c mouse, 4T1 tumour, lymph nodes; dose not given).
The oedema reduction of `FC(F)(F)Oc1ccc(/N=c2\oc3ccccc3cc2-c2ccccc2)cc1` is reported as 52.9 ± 3.6% (rat, formalin paw oedema; intraperitoneal, 20 mg/kg, 4 h).
`O=C(/C=C/c1ccc(O)c(O)c1)OCCCC[P+](c1ccccc1)(c1ccccc1)c1ccccc1` — result for “cytochrome c release”: about 2.5 fold (immunoblotting; rat liver mitochondria; 10 µM, 15 min; relative to: untreated).
`C[C@@H](O)[C@H](N)C(=O)N1CCC[C@H]1C(=O)NCC(=O)NCC(=O)O` — result for “ΔS‡ at 298.15 K”: -74 ± 8 J/(mol·K) (diketopiperazine formation, transition state theory; 1-propanol; 70, 80, 90 °C, 0.5% acetic acid).
`CN1CCN(CC(=O)Nc2nc(-c3ccccc3)cs2)CC1`: “inhibition in vivo” 64.3% (paw oedema; mouse; intraperitoneal, 200 µmol/kg).
With `CN1CCC[C@]1(C)/C=C/S(=O)(=O)NC(=O)Nc1c2c(cc3c1CCC3)CCC2` the inhibition was about 90% (IL-1β release; human, whole blood ex vivo; oral, 50 mg, 36 h after last dose, multiple ascending dose, with: LPS and ATP).
`Nc1nc2cnc(C(=O)N3CCOC[C@@H]3c3ccc(C(F)(F)F)cc3)cc2c2c1COC2` gave an SDMA reduction of 100% (human, tumour biopsy; oral, 800 mg once daily, cycle 2; relative to: pretreatment).
For `C[C@H](N)C(=O)N1CCC[C@H]1C(=O)NCC(=O)NCC(=O)O`, “ΔS‡ at 298.15 K” read -50 ± 3 J/(mol·K) (diketopiperazine formation, transition state theory; 1-propanol; 70, 80, 90 °C, 0.5% acetic acid).
For `CC[C@@H](C)[C@H]1NC(=O)[C@@H]([C@H](C)O)NC(=O)[C@@H](Cc2c[nH]cn2)NC(=O)CNC(=O)[C@@H](CCCNC(=N)N)NC(=O)CNC(=O)[C@@H](Cc2ccccc2)NC1=O`, “retinal vascular permeability” read “decreased” (Evans blue; rat, STZ diabetic for 6 weeks; eye drop, 0.5% once daily, 5 days).
Under “latency of nociceptive response”, `CCCCCCOC(=O)Cc1c(C)n(C(=O)c2ccc(Cl)cc2)c2ccc(OC)cc12` is recorded as 16.4 ± 0.68 s (hot plate test; BALB/c mice; 100 mg/kg, 90 min).
With `FC(F)(F)c1ccccc1/N=c1\oc2ccccc2cc1-c1ccccc1` the oedema reduction was 39.9 ± 3.1% (rat, formalin paw oedema; intraperitoneal, 20 mg/kg, 2 h).
`CCCCCCCCCCCCCCCC(=O)OCC(CSC[C@H](N)C(=O)N[C@@H](CO)C(=O)N[C@@H](CCCCN)C(=O)N[C@@H](CCCCN)C(=O)N[C@@H](CCCCN)C(=O)N[C@@H](CCCCN)C(=O)NCCCCCC(=O)N[C@@H](CCCCN)C(=O)N[C@@H](CC(C)C)C(=O)N[C@H](C(=O)N[C@@H](Cc1ccccc1)C(=O)N[C@@H](Cc1ccccc1)C(=O)N[C@@H](Cc1ccc2ccccc2c1)C(=O)O)C(C)C)OC(=O)CCCCCCCCCCCCCCC` (some centres unmarked): “plaque load ratio” 0.57 ± 0.1 (measured: thioflavin S plaques; APP/PS1 mouse, 13 months; intracortical, 100 µM, 300 nL, 5 d; relative to: injected over adjacent side).
`Cc1ccc(C(=O)Nc2ccc(CP(=O)(O)O)cc2CP(=O)(O)O)cc1NC(=O)c1cccc(NC(=O)Nc2cccc(C(=O)Nc3cc(C(=O)Nc4ccc(CP(=O)(O)O)cc4CP(=O)(O)O)ccc3C)c2)c1` gave a PT of 14.2 ± 2.3 s (human plasma; 235 µM).
For `O=C(CCN1CCC(O)CC1)Nc1nccs1`, “inhibition in vivo” read 26.1% (paw oedema; mouse; intraperitoneal, 200 µmol/kg).
For `COc1ccc(OC)c(C(=Cc2ccc(O)c(OC)c2)C(=O)NCCc2ccc(O)cc2)c1`, rotarod latency read “increased” (C57BL mice, MPTP/p Parkinson model; 75 mg/kg, 8 weeks, rotarod 25 rpm; relative to: MPTP/p vehicle).
`O=C(O)CNC(=O)CNC(=O)[C@@H]1CCCN1C(=O)[C@@H]1CCCN1`: “ΔS‡ at 298.15 K” -69 ± 1 J/(mol·K) (diketopiperazine formation, transition state theory; 1-propanol; 70, 80, 90 °C, 0.5% acetic acid).
The FRAP absorbance of `COc1cc(CN2CCN(c3ccc(Cl)cc3)CC2)c2cc3[n+](cc2c1O)CCc1cc2c(cc1-3)OCO2` is reported as 1.74 ± 0.62 a.u. (ferric reducing power, FRAP; 10 µg/mL, 30 min; higher is greater reducing power).
For `CC(C)C[C@H](N)C(=O)N1CCC[C@H]1C(=O)NCC(=O)NCC(=O)O`, “ΔS‡ at 298.15 K” read 14 ± 1 J/(mol·K) (diketopiperazine formation, transition state theory; 1-propanol; 70, 80, 90 °C, 0.5% acetic acid).
`O=C(OCc1cccc(O)c1O)c1ccc(O)c(CO)c1` — result for “time to blood pressure rise”: at most 24 h (C57BL/6J mice; dose not given, after withdrawal day 1-7, with: angiotensin II infusion).
The potency ratio of `CO[C@@H](C[C@H]1C(C)=CC[C@@H]2[C@]3(C)C[C@H](O[C@@H]4O[C@@H](C)[C@H](OC(=O)c5cccc(O)c5)[C@@H](O[C@@H]5O[C@H](CO)[C@@H](O)[C@H](O)[C@H]5NC(C)=O)[C@H]4O)[C@@H](O)C(C)(C)[C@H]3CC[C@]21C)[C@H](N)C(=O)O` is reported as about 3 (mixed lymphocyte reaction; mouse; relative to: cyclosporin).
`C=C(c1ccc(C(=O)O)c(F)c1)c1cc2c(cc1C)C(C)(C)C=CC2(C)C` — result for “log2 fold change”: -0.49 (RNA sequencing, measured: Epha3 mRNA; rat, brain; dose not given, 24 h, single dose; relative to: vehicle).
For `CC[C@H]1[C@@H](O)[C@@H]2[C@H](CC[C@]3(C)[C@@H]([C@H](C)CCOS(=O)(=O)[O-])CC[C@@H]23)[C@@]2(C)CC[C@@H](O)C[C@@H]12.[Na+]`, the AST activity was 359 ± 15.6 U/L (ob/ob NASH mouse model, plasma; oral, 10 mg/kg once daily, before treatment, baseline of 8 week study).
For `CC[C@H](C)[C@@H]1NC(=O)[C@H](Cc2ccccc2)NC(=O)[C@H](CCC(=O)O)NC(=O)[C@H](CCCNC(=N)N)NC(=O)CNC(=O)[C@@H](NC(=O)[C@H](CC(C)C)NC(=O)[C@H](CCCNC(=N)N)NC(=O)[C@@H](NC(=O)CNC(=O)[C@H](Cc2ccc(O)cc2)NC(=O)[C@@H]2CCCN2C(=O)[C@H](C)NC(=O)[C@H](C)NC(=O)[C@@H](N)CCCNC(=N)N)C(C)C)CSSC[C@@H]2NC(=O)[C@@H](NC(=O)[C@H](CO)NC(=O)[C@H](CO)NC(=O)[C@H](CO)NC(=O)[C@H](CC(C)C)NC(=O)CNC(=O)[C@H](C)NC(=O)[C@H](CC(C)C)NC(=O)[C@@H](NC(=O)[C@@H](N)CC(=O)O)C(C)C)CSSC[C@H](NC(=O)CNC(=O)[C@H](Cc3c[nH]c4ccccc34)NC(=O)[C@H](CCCCN)NC2=O)C(=O)N[C@@H](CO)C(=O)N[C@@H](CCCCN)C(=O)N[C@@H](CO)C(=O)N[C@@H](CCC(=O)O)C(=O)N[C@@H]([C@@H](C)CC)C(=O)N[C@@H](CO)C(=O)N[C@@H](CO)C(=O)N[C@@H](CC(C)C)C(=O)N[C@H](C(=O)O)CSSC[C@@H](C(=O)NCC(=O)NCC(=O)N[C@@H](CO)C(=O)N[C@@H](CCCNC(=N)N)C(=O)N[C@@H](Cc2c[nH]c3ccccc23)C(=O)O)NC(=O)[C@H]([C@@H](C)O)NC(=O)[C@H](Cc2ccccc2)NC(=O)[C@H]([C@@H](C)CC)NC(=O)[C@H](C(C)C)NC(=O)[C@H](C)NC(=O)[C@H](CCCNC(=N)N)NC1=O`, swimming behaviour read “no effect” (repeated forced swim test; female Sprague-Dawley rats; intranasal daily, 275 µg/kg; relative to: vehicle).
Under “log2 fold change”, `C=C(c1ncc(C(=O)O)cn1)c1cc2c(cc1C)C(C)(C)CCC2(C)C` is recorded as -0.5 (RNA sequencing, measured: Nmu; rat, brain; dose not given, 24 h; relative to: vehicle).
`CSCC[C@H](N)C(=O)N1CCC[C@H]1C(=O)NCC(=O)NCC(=O)O` — result for “enthalpy of activation”: 22 ± 3.35 kcal/mol (diketopiperazine formation, transition state theory; 1-propanol; concentration not given, 70, 80, 90 °C, 0.5% acetic acid).
For `Oc1ccc2nc1CNCCNCCNC2`, “log beta ML” read 5.17 (pH-potentiometric titration; 298 K, I 0.15 M NaCl, with: Mg2+).
`COc1cc(CN2CCN(c3ccc(OC(F)(F)F)cc3)CC2)c2cc3[n+](cc2c1O)CCc1cc2c(cc1-3)OCO2` has an FRAP absorbance of 0.005 ± 1.32 a.u. (ferric reducing power, FRAP; 10 µg/mL, 30 min; higher is greater reducing power).
`CCNC(=S)NNS(=O)(=O)c1ccc2c(c1)n(C)c(=O)c(=O)n2C` gave a blood glucose of 86.7 ± 5.49 mg/dL (IPGTT; HFD/STZ diabetic male albino mice; 10 mg/kg, 6 h).
For `COc1ccc(C2CC(c3ccc(C)cc3)=Nc3ccccc3S2)cc1OC` (centres unmarked), the HDL cholesterol was 58.4 mg/dL (Wistar rat, STZ-induced diabetes, serum; 20 mg/kg, 28 days).
For `CCC1CC2C(C)=CC3C(=O)CCCC3C=CC(C)=CC2C(=O)O1` (centres unmarked), “plaque number reduction” read 11.2% (thioflavin S staining, measured: amyloid-beta plaques; 5XFAD mouse (male, 8 months), hippocampus; oral, 30 mg/kg three times per week, one month; relative to: vehicle).
Under “increase in maximal response”, `CCOc1ccc(C[C@@H]2NC(=O)[C@@H](N)CSSC[C@@H](C(=O)N3CCC[C@H]3C(=O)N[C@@H](CC(C)C)C(=O)NCC(N)=O)NC(=O)[C@H](CC(N)=O)NC(=O)[C@H](CCC(N)=O)NC(=O)[C@H]([C@@H](C)CC)NC2=O)cc1` is recorded as 22% (Rhinella marina, toad urinary bladder; concentration not given, with: theophylline; relative to: theophylline alone).
`O=C(O)c1ccc(/C=C2\SC(=S)N(Cc3cccc(C(F)(F)F)c3)C2=O)cc1`: “TNF-α and MCP-1 production” “decreased” (mouse, high-fat diet, liver and white adipose; dose not given).

A few entries again:
`Nc1nc2cnc(C(=O)N3CCOC[C@@H]3c3ccc(C(F)(F)F)cc3)cc2c2c1COC2` gave an SDMA reduction of 100% (human, tumour biopsy; oral, 800 mg once daily, cycle 2; relative to: pretreatment).
For `C[C@H](N)C(=O)N1CCC[C@H]1C(=O)NCC(=O)NCC(=O)O`, “ΔS‡ at 298.15 K” read -50 ± 3 J/(mol·K) (diketopiperazine formation, transition state theory; 1-propanol; 70, 80, 90 °C, 0.5% acetic acid).
For `CC[C@@H](C)[C@H]1NC(=O)[C@@H]([C@H](C)O)NC(=O)[C@@H](Cc2c[nH]cn2)NC(=O)CNC(=O)[C@@H](CCCNC(=N)N)NC(=O)CNC(=O)[C@@H](Cc2ccccc2)NC1=O`, “retinal vascular permeability” read “decreased” (Evans blue; rat, STZ diabetic for 6 weeks; eye drop, 0.5% once daily, 5 days).
Under “latency of nociceptive response”, `CCCCCCOC(=O)Cc1c(C)n(C(=O)c2ccc(Cl)cc2)c2ccc(OC)cc12` is recorded as 16.4 ± 0.68 s (hot plate test; BALB/c mice; 100 mg/kg, 90 min).
With `FC(F)(F)c1ccccc1/N=c1\oc2ccccc2cc1-c1ccccc1` the oedema reduction was 39.9 ± 3.1% (rat, formalin paw oedema; intraperitoneal, 20 mg/kg, 2 h).
`CCCCCCCCCCCCCCCC(=O)OCC(CSC[C@H](N)C(=O)N[C@@H](CO)C(=O)N[C@@H](CCCCN)C(=O)N[C@@H](CCCCN)C(=O)N[C@@H](CCCCN)C(=O)N[C@@H](CCCCN)C(=O)NCCCCCC(=O)N[C@@H](CCCCN)C(=O)N[C@@H](CC(C)C)C(=O)N[C@H](C(=O)N[C@@H](Cc1ccccc1)C(=O)N[C@@H](Cc1ccccc1)C(=O)N[C@@H](Cc1ccc2ccccc2c1)C(=O)O)C(C)C)OC(=O)CCCCCCCCCCCCCCC` (some centres unmarked): “plaque load ratio” 0.57 ± 0.1 (measured: thioflavin S plaques; APP/PS1 mouse, 13 months; intracortical, 100 µM, 300 nL, 5 d; relative to: injected over adjacent side).
